Results gathered from unrelated publications.
“And” joins repeats or separate records; there may be more than shown. ± gives the spread as reported. In brackets after ≈: the same amount, converted by molar mass.
UniProt P50613, sequence (whole entry, looked up): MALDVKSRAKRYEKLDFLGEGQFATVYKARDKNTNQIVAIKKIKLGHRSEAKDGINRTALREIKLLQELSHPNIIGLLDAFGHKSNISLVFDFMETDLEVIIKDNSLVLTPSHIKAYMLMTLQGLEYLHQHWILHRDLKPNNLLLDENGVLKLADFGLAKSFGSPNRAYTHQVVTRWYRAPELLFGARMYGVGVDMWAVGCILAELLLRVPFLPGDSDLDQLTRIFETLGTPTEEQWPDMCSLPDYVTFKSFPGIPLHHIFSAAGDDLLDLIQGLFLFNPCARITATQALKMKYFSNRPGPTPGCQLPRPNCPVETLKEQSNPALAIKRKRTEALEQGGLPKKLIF
UniProt P10635, sequence (whole entry, looked up): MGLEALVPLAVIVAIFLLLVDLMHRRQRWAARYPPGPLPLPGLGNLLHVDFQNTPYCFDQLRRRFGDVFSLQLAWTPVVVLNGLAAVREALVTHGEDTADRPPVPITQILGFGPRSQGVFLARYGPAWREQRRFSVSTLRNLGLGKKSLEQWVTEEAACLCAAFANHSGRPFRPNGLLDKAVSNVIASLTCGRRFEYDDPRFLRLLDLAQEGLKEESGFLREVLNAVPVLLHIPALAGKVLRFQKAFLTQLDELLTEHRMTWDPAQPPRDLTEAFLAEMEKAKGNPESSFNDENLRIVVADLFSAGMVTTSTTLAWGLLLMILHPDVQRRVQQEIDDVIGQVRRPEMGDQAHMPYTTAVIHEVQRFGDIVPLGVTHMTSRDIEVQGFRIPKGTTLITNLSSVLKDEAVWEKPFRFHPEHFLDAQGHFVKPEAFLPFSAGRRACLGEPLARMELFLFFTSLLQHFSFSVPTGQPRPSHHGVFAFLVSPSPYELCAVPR

Structure (SMILES)	tested on	test	test system	conditions	scale	quantity	result
C[C@@H]1C(=O)O[C@@H](C)/C=C/C=C\[C@@H](C)[C@@H]2C=C[C@@H]3C[C@@]4(C)O[C@H]4[C@@H](C)[C@H]3[C@@H]2C(=O)C(Cl)(Cl)C1=O	Staphylococcus aureus	–	MSSA clinical isolate	resistant: CIP,DAP,MXF	–	MIC	0.0125 µg/mL (≈ 0.0252 µM)
O=Cc1c[nH]c2ccccc12	Parabacteroides distasonis	bacterial growth, inhibitor, OD600	–	anaerobic	–	IC50	> 50000 nM
O=C1C(O)=C([C@H]2CC[C@H](c3ccc(Cl)cc3)CC2)C(=O)c2ccccc21	Toxoplasma gondii	bradyzoite growth	–	glutamine-induced bradyzoites	–	EC50	63 nM
CCC1(CC)CC(=O)N(C2c3cc(C(=O)NC4c5ccccc5CC4O)ccc3OC2(C)COC)C(=N)N1 (centres unmarked)	Plasmodium falciparum	–	3D7	10 × EC50, 120 h	–	log PRR	3.62
Nc1ncc(-c2cc(-c3cnn(CC(F)(F)F)c3)ncc2F)nc1C(=O)NC1CNCC(F)C1 (centres unmarked)	NEK7	KINOMEscan	–	1 µM	baseline: DMSO control	remaining binding	99%
N=C(N)NCCC[C@@H]1NC(=O)[C@H](CCCNC(=N)N)NC(=O)[C@@H](CCCNC(=N)N)NC(=O)[C@H](C(c2ccccc2)c2ccccc2)NC(=O)[C@H](C(c2ccccc2)c2ccccc2)NC(=O)[C@H](C(c2ccccc2)c2ccccc2)NC(=O)[C@H](CCCNC(=N)N)NC1=O	Blastomyces dermatitidis	–	BD-1	–	–	MIC	0.5 µg/mL (≈ 0.386 µM)
CCOC(=O)c1cc(-c2nc3ccccc3s2)c(=O)n(NS(=O)(=O)c2ccc(Cl)cc2)c1N	hepatitis C virus	qRT-PCR	Huh7.5, genotype 4	concentration not given	–	viral load reduction	0%
Cc1ncsc1-c1ccc(C(C)NC(=O)C2CC(O)CN2C(=O)C(NC(=O)CCCCCCCCCCN2CCCC(Nc3ncc(Cl)c(Nc4ccccc4S(=O)(=O)C(C)C)n3)C2)C(C)(C)C)cc1 (centres unmarked)	22Rv1	RNA-seq, item: SATB2 mRNA	–	concentration not given	baseline: DMSO	log2 fold change	-1.55
Cc1cc(Cl)cc(S(C)=NC#N)c1NC(=O)c1cc(Br)nn1-c1ncccc1Cl (centres unmarked)	Spodoptera litura	–	Brassica oleracea field	50 ppm, 72 h, 10% wettable powder	–	corrected larval mortality	81.2%
CNS(=O)(=O)Nc1nccc(Cc2c(C)c3ccc(Oc4ncccc4F)cc3oc2=O)c1F	SCaBER	cell viability	–	7 days	–	IC50	5.17 nM
CNCc1ccc2c(c1)C[C@H](CNC(=N)N)[C@H]2NC(=O)C(=O)Nc1ccc(Cl)c(F)c1	HIV-1	viral infection	TZM-bl, CRF02_AG 263-8 Env pseudovirus	–	–	IC80	14600 nM
N=C(N)NCCC[C@@H]1NC(=O)[C@H](CCCNC(=N)N)NC(=O)[C@@H](CCCNC(=N)N)NC(=O)[C@@H](CCCNC(=N)N)NC(=O)[C@@H](C(c2ccccc2)c2ccccc2)NC(=O)[C@H](Cc2c[nH]c3ccccc23)NC(=O)[C@@H](C(c2ccccc2)c2ccccc2)NC1=O	Aspergillus fumigatus	–	Af 293	4 x MIC, 8 h	–	reduction of viable cells	> 85%
CC(C)(C)NCC(SS(=O)(=O)O)c1ccccc1 (centres unmarked)	Schistosoma mansoni	perfusion day 52	infected Swiss Webster mice	600 mg/kg single dose, dosed day 7 post-infection	–	liver weight	4.6 g and 5.2 g and 3.2 g and 2.94 g
CC(=O)[O-].O.O.O.O.[Ni+2].[O-]c1ccc(Br)cc1C=NCCN1CCOCC1	–	FRAP	–	80 µM	–	ferric reducing power	18.7%
O=C(Nc1cnccc1-c1ccc([18F])nc1)c1ccnc(NC(=O)C2CC2)c1	–	ex vivo gamma counting	FVB/NJ mice, both sexes, adipose tissue	intravenous, 120 min, together with: tariquidar 15 mg/kg iv	–	mean SUV	0.079
c1ccc2c(Cc3c[nH]c4ccccc34)c[nH]c2c1	Bacteroides fragilis	microbial growth, absorbance	–	–	–	IC50	20000 nM
Cc1cccc2c1N(C(=O)n1ccnn1)CC2	Arabidopsis thaliana	–	wild type, seedlings	10 µM, continuous red light, together with: 0.3 µM karrikin KAR2	–	hypocotyl length	14 mm
c1ccc2c([C+](c3c[nH]c4ccccc34)c3c[nH]c4ccccc34)c[nH]c2c1	Parabacteroides distasonis	bacterial growth, inhibitor, OD600	–	anaerobic	–	IC50	> 50000 nM
COC1CN([C@H]2CC[C@H]([C@@]3(C)Oc4c(Cl)cc(C(=O)NCc5c(SC)cc(C)[nH]c5=O)c(C)c4O3)CC2)C1	–	RNA-seq, item: DIXDC1 mouse homolog	mouse, HT-1376 xenograft, whole blood	dose not given	baseline: vehicle	log2 fold change	0.126
COC1C=COC2(C)Oc3c(C)c(O)c4c(c3C2=O)C2=NC3(CCN(CC(C)C)CC3)NC2=C(NC(=O)C(C)=CC=CC(C)C(O)C(C)C(O)C(C)C(OC(=O)Nc2cnccn2)C1C)C4=O (centres unmarked)	Mycobacteroides abscessus	bacterial growth	subsp. abscessus clinical isolate	slow grower	–	IC90	56 nM
Cc1ccccc1/C=C/C(=O)N[C@@H](CO)C(=O)N[C@H](C(=O)N[C@H](Cc1ccccc1)C(=O)N[C@@H]1C(=O)N2[C@@H](CC(=O)O)C(=O)Nc3ccccc3[C@@]2(O)[C@@H]1O)[C@@H](C)O	Mycobacterium avium	resazurin microtitre	104	4 days, 37 °C	–	MIC50	inactive

Structure (SMILES)	tested on	test	test system	conditions	scale	quantity	result
CCCOC(=O)N1c2cc(CNC)ccc2[C@H](NC(=O)C(=O)Nc2ccc(Cl)c(F)c2)[C@H]1CNC(=N)N	HIV-1	pseudovirus infection, Env pseudovirus neutralisation	TZM-bl, clade B T/F isolate d15_410_787	–	–	IC80	1380 nM
CC(C)C[C@H](NC(=O)[C@H](Cc1ccc(O)cc1)NC(=O)[C@@H](CCCNC(=N)N)NC(=O)[C@@H](CO)NC(=O)[C@H](Cc1ccccc1)NC(=O)[C@H](CC1CCCCC1)NC(=O)[C@H](CC(=O)O)NC(=O)CN1CCN(CC(=O)O)CCN(CC(=O)O)CCN(CC(=O)O)CC1)C(=O)N[C@@H](Cc1c[nH]c2ccccc12)C(=O)N[C@@H](CO)C(=O)O [copper-64 labelled]	–	–	human, lung	concentration not given, 24 h	–	activity concentration	126 Bq/mL and 162 Bq/mL and 89.6 Bq/mL and 290 Bq/mL and 81.7 Bq/mL and 144 Bq/mL
CC(C)(O/N=C(\C(=O)N[C@@H]1C(=O)N(OS(=O)(=O)O)C1(C)C)c1nsc(N)n1)C(=O)O	Serratia marcescens	agar dilution	ATCC 21074, susceptible	–	–	MIC	64 µg/mL (≈ 137 µM)
C=CC(=O)Nc1cccc(Cn2ncc3cnc(Nc4cnn(CCOC)c4)nc32)c1	PCTK3 human	binding, KINOMEscan	–	100 nM	lower = stronger binding	percent of control	100%
Cc1cc(C(=O)Nc2nc3cccc(C)c3n2[C@H]2CCCCN(C(=O)/C=C/CN(C)C)C2)ccn1	Leishmania donovani	cell growth	HU3 axenic amastigotes	–	–	EC50	606 nM
CCCCCCCCCC(=O)N[C@@H](Cc1c[nH]c2ccccc12)C(=O)N[C@H](CC(N)=O)C(=O)N[C@@H](CC(=O)O)C(=O)N[C@@H]1C(=O)NCC(=O)N[C@@H](CCCNC(=O)OC2/C=C/CCCCC2)C(=O)N[C@@H](CC(=O)O)C(=O)N[C@H](C)C(=O)N[C@@H](CC(=O)O)C(=O)NCC(=O)N[C@H](CO)C(=O)N[C@@H]([C@H](C)CC(=O)O)C(=O)N[C@@H](CC(=O)c2ccccc2N)C(=O)O[C@@H]1C (some centres unmarked)	Staphylococcus aureus	planktonic bacterial growth, isothermal microcalorimetry	MSSA	2.5 µg/mL, 24 h, 37 °C	–	peak heat flow	0 µW
CC(C)CS(=O)(=O)N[C@H]1CC[C@H](Nc2ncc3c(N4CCOCC4)n[nH]c3n2)CC1	Leishmania donovani	parasite growth	–	amastigote	–	EC50	55 nM
COC1C=COC2(C)Oc3c(C)c(O)c4c(c3C2=O)C2=NC3(CCN(CC(C)C)CC3)NC2=C(NC(=O)C(C)=CC=CC(C)C(O)C(C)C(O)C(C)C(OC(=O)Nc2cccnn2)C1C)C4=O (centres unmarked)	Mycobacteroides abscessus	bacterial growth	subsp. abscessus ATCC 19977	–	–	IC90	42 nM
Cc1c(CN(C)C(=O)/C=C/c2cnc3c(c2)CC(N)C(=O)N3)oc2ccccc12 (centres unmarked)	Escherichia coli	microbial growth, broth dilution	BAA2469	clinical isolate	–	MIC	2 µg/mL (≈ 5.12 µM)
FC(F)(F)c1cccc(CNc2nc(NC3CCN(Cc4ccccc4)CC3)c3nc[nH]c3n2)c1	Cryptococcus neoformans	RNA-seq, item: PIK1 (CNAG_07744) mRNA	–	48 µg/mL, 3 h	baseline: untreated wild type	log2 fold change	-0.564
CC(=O)C(C)(c1c[nH]c2ccccc12)c1c[nH]c2ccccc12	Bacteroides fragilis	microbial growth, absorbance	–	–	–	IC50	38000 nM
CNC(=O)C1CCCN(C(=O)C2CC3CCC2N3C(=O)[C@@H]2C[C@@H](O)CN2C(=O)NCc2cccc(Cl)c2F)C1 (mixture of isomers)	Cytochrome P450 2D6 (CYP2D6, Homo sapiens, UniProt P10635)	enzyme activity, inhibitor, time-dependent inhibition	–	0.0686 µM, preincubated without NADPH	–	dextrorphan formation	152 ng/mL
O=C1C2CC3CC1CC(C(=O)N1CCN(c4ccc([N+](=O)[O-])c5ncccc45)CC1)(C3)C2	Escherichia coli	Ames test	WP2 uvrA pKM101	0.78 µg/well, without S9 activation	–	revertant colony count	25 colonies/well
Cc1nn(-c2cccc(N)c2)c(=O)c2cnc(Nc3ccc(N4CCNCC4)cc3)nc12	Cyclin-dependent kinase 7, with cyclin H, MAT1 (CDK7, Homo sapiens, UniProt P50613)	inhibitor, SelectScreen kinase	–	–	–	IC50	> 10000 nM
CC1(C)[C@H](NC(=O)/C(=N\OCCN)c2nsc(N)n2)C(=O)N1OS(=O)(=O)O	Serratia marcescens	agar dilution	ATCC 21074, susceptible	–	–	MIC	16 µg/mL (≈ 37.8 µM)
c1ccc(CC(c2c[nH]c3ccccc23)c2c[nH]c3ccccc23)cc1	Bacteroides fragilis	microbial growth, absorbance	–	–	–	IC50	8700 nM
O=C(N/N=C/c1ccc(C[n+]2ccccc2)cc1)c1cc(C(=O)N/N=C/c2ccc(C[n+]3ccccc3)cc2)ncn1	telomeric G4 DNA hybrid-2	FRET melting	–	1 µM, DNA 0.2 µM, together with: duplex DNA competitor 10 µM	–	ΔTm	2 ± 0.6 °C
C=C(NC(=O)c1csc(-c2nc3c(cc2O)-c2nc(cs2)C(=O)NC(C(C)O)C(=O)NC(=C(C)OC)c2nc(cs2)C(=O)NC2c4nc(cs4)C(=O)NC(COC(=O)c4c5c6c(cccc6n4O)COC(=O)C(OC4CC(C)(O)C(N(C)C)C(C)O4)C2OC5)c2nc-3cs2)n1)C(N)=O (centres unmarked)	Enterococcus faecalis	–	vancomycin-intermediate, 10 isolates	serum 50%	–	MIC50	0.0312 µg/mL (≈ 0.0217 µM)
O=S(=O)(CCC(F)(F)F)N[C@H]1CC[C@H](Nc2ncc3c(-c4ccccn4)n[nH]c3n2)CC1	Leishmania donovani	parasite growth	–	amastigote	–	EC50	330 nM
O=c1c(-c2nc3ccccc3s2)cc2c(n1NS(=O)(=O)c1ccccc1)CCCCCC2	hepatitis C virus	qRT-PCR	Huh7.5, genotype 4	concentration not given	–	viral load reduction	0%

A few entries again:
Structure (SMILES)	tested on	test	test system	conditions	scale	quantity	result
CC(C)(C)NCC(SS(=O)(=O)O)c1ccccc1 (centres unmarked)	Schistosoma mansoni	perfusion day 52	infected Swiss Webster mice	600 mg/kg single dose, dosed day 7 post-infection	–	liver weight	4.6 g and 5.2 g and 3.2 g and 2.94 g
O=C1C2CC3CC1CC(C(=O)N1CCN(c4ccc([N+](=O)[O-])c5ncccc45)CC1)(C3)C2	Escherichia coli	Ames test	WP2 uvrA pKM101	0.78 µg/well, without S9 activation	–	revertant colony count	25 colonies/well
O=Cc1c[nH]c2ccccc12	Parabacteroides distasonis	bacterial growth, inhibitor, OD600	–	anaerobic	–	IC50	> 50000 nM
Nc1ncc(-c2cc(-c3cnn(CC(F)(F)F)c3)ncc2F)nc1C(=O)NC1CNCC(F)C1 (centres unmarked)	NEK7	KINOMEscan	–	1 µM	baseline: DMSO control	remaining binding	99%
